Assay results gathered from unrelated publications.
Parts stem from different laboratories: compare values within a part only.

Series 1 — technique: protein-binding microarray; molecule type: double-stranded DNA, one strand shown; sample: in vitro; tested at: 2540 nM top; notes: 60-bp whole probe; with: salmon DNA 0.4 mg/ml; relative to: random background probes; reading: higher = stronger binding; constant ends, left off below: GCCTAGCAC … GTCTTGATTCGCTTGACGCTGCTG
Target: Interferon regulatory factor 3, full length, phosphomimetic (IRF3, Homo sapiens, UniProt Q14653, residues 1-427, S386D/S396D/S398D/S402D/T404D/S405D)
Chain of UniProt Q14653 (whole entry, unmodified, looked up): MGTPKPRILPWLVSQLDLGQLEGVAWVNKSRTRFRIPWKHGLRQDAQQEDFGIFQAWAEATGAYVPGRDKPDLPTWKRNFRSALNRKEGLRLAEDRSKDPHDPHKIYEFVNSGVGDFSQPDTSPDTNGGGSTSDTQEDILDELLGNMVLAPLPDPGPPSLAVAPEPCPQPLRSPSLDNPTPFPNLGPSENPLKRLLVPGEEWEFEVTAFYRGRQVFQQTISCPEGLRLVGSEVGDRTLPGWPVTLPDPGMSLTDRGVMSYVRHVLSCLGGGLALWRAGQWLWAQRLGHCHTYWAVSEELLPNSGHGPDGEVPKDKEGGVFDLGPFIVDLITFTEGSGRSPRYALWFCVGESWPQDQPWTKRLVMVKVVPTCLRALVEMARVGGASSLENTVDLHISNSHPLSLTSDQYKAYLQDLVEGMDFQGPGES
Sequence | fitted relative affinity [z-score]
GACGATATCAGTTTGGAGACGTGCTAG | 0.735
TTAGGTCTCCTTTTACTTTAGTGCTAG | 4.65
TTGCTTCTATAGGCTAGAATCGTGCTA | -0.297
TCAAGTTTGACATCTTCAACTGTGCTA | -0.296
GACGGATCCGGTTTCGGGACGTGCTAG | 4.25
CACGGTTTCGGGACTGGGGACGTGCTA | 4.15
TTAGGACTGCTAATGCTTTAGTGCTAG | -0.54
TTAGATCTCAGTCTCCATTAGTGCTAG | 1.09
TCAGTTTTTCATTTTTTACTGTGCTAG | 1.94
TGAGGTTTCGGACTGGGTTAGTGCTAG | 3.56
TCATACATGCATATAGTACTGTGCTAG | 0.291
GACGGACTGGATACTGGGGACGTGCTA | -0.313
TTAAGTTTCGGTCTCGGTTAGTGCTAG | 9.37
GACGGTTTCGGTCTCGTGACGTGCTAG | 8.83
TTAGATATCATACTGGATTAGTGCTAG | 0.355
GACGATCTCAGTATCTAGACGTGCTAG | 0.661
GTAGGTATCGGTATCGGTTAGTGCTAG | 5.08
TTCGGTTTCGACACTGGGTTAGTGCTA | 3.87

Series 2 — technique: competition protein-binding microarray; molecule type: double-stranded DNA, one strand shown; sample: in vitro; tested at: 2 µM; with: Cbf1 competitor, 0.05 µM; reading: higher = stronger binding; constant ends, left off below: … GTCTTGATTCGCTTGACGCTGCTG
Target: Phosphate system positive regulatory protein PHO4, full length, GST-tagged (PHO4, Saccharomyces cerevisiae, UniProt P07270, residues 1-312)
Notes: whole 60-bp probe, lowest competitor level
Target sequence (chain): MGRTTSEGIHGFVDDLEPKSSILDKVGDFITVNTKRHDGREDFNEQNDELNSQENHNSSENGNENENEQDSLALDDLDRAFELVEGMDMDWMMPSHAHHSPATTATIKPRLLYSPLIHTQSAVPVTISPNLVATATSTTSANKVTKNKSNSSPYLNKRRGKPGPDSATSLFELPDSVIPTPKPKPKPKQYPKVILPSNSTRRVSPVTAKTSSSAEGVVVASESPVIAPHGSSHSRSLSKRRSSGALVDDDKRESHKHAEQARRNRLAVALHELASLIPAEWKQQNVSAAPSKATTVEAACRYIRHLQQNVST
Sequence | fluorescence intensity [a.u.]
AACCTACATCTTCACATCGTGGCCGAATTGAAGCTA | 9130
AAAAAAAATTTTCGCCTCGTGGCCGGAAACACGGCC | 11700
TCTAATGTTATTCGTCACGTCGATCTGACATATATC | 4530
TATATAAGATAATTGCACATGCAAACAGTCAATCTT | 8600
CGTCCTAGTGATTGTCACTGGACTTCCATGAGGAAG | 4310
GTCTTGTCTCATTGCCTAGTGGGTGTCCCCACTTCA | 5640
AAAGCGGTAATTTGCCTAGTGGGTGCAGATATCTAT | 5070
CTTTCCCGATCTTGGTCCGTGGGTGTAGCACATTTG | 7530
GTAAGTCGTCAAAGGGGCGTGGGTAAGCCATTTCTT | 10500
CGGGGTTAAGTTTGGTATGTGGGTGGCTTGCAGCAG | 5120
CTAACGAAGGTTTGATTGGTGGGTGACAAGCCAAGT | 3760
ACAAAATTCCCCCATCACGTGAAGCAGGAGGCGCAA | 10800
TCTGATGTGTAAACTCATGTGGTGCACTGGTGTTGT | 6770
GTCTTGTCTCATTAACACGTGTTTTTCCCCACTTCA | 16700
AGCGACCTTCTTGGCACCGTGCTTTTTGGCGACCTT | 7770
CTTTCCCGATCTTGTCATGTGGGTGTAGCACATTTG | 8760
GCAGCACAATCTCCCGTAGAATTATCAAGAATGTTT | 3890
TTTAACCTCTAGTAAGAAGGACCCGGCACTTATTGT | 3010
GTTTCAGAAAATCCATGTCATTAAAGAGCTTTATCA | 3420
CTCGCGTTAGAGCAGTACGTGGCCGAGCTAAACTCG | 5500
GTCTTGTCTCATTGAGTAGTGGGTGTCCCCACTTCA | 4430
TTGCTGAGGAAGAGAGACGTGCTTTTGCCAACTCCA | 5930
CTAACGAAGGTTTTTCACGTGCCGTACAAGCCAAGT | 15500
AGCCATACACCAAAGCACGTCGACGAGGTTATATTT | 7250
TAATAATTCTTGTTCCTCGTGGCCGAATGGTTACGG | 11800

Series 3 — technique: protein-binding microarray; molecule type: double-stranded DNA, one strand shown; sample: in vitro; tested at: not given; reading: higher = stronger binding
Target: Protein C-ets-1 (ETS1, Homo sapiens, UniProt P14921, residues 1-441, full length assumed)
Notes: k-mer, scored over probes, only values ≥0.25
Target sequence (chain): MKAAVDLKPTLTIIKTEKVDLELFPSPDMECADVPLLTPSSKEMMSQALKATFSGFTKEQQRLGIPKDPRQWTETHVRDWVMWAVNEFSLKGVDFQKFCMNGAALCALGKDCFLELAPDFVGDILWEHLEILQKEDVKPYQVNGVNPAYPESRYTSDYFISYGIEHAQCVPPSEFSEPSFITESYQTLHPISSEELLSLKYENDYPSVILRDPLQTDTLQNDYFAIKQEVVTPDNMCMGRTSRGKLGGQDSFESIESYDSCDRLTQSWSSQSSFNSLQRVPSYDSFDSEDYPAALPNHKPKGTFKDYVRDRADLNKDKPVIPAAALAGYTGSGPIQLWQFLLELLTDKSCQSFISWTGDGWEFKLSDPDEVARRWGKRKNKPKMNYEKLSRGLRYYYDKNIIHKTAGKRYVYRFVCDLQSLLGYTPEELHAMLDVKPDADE
Sequence | E-score
AGCCGGGA | 0.258
ACGGAAGC | 0.447
AAGCCGGA | 0.421
CCCGCTTC | 0.268
TACCGGTA | 0.353
CCGCCCCG | 0.325
GATACGGA | 0.356
GTAAGGAA | 0.254
GGACCGGA | 0.474
CCTTCCAC | 0.259
AGGAAATA | 0.46
CGTGTTCC | 0.258
AGGATGCA | 0.394
CCCCTTCC | 0.412
CACATCCA | 0.288
ACCGGACG | 0.477
AACGGACG | 0.296
GAAGAGGA | 0.268
CATGCGGA | 0.261
GGACGGAC | 0.268
TGAAGGAA | 0.284
AAGAGGAA | 0.367
CGCGTCCG | 0.413
GCGTCGGA | 0.253
GTTTCCTA | 0.338

Series 4 — technique: universal PBM; molecule type: double-stranded DNA, one strand shown; sample: in vitro; tested at: 600 nM; reading: higher = stronger binding
Target: Sal-like protein 4, full length isoform A (SALL4, Homo sapiens, UniProt Q9UJQ4, residues 1-1053)
Chain of UniProt Q9UJQ4 (whole entry, looked up): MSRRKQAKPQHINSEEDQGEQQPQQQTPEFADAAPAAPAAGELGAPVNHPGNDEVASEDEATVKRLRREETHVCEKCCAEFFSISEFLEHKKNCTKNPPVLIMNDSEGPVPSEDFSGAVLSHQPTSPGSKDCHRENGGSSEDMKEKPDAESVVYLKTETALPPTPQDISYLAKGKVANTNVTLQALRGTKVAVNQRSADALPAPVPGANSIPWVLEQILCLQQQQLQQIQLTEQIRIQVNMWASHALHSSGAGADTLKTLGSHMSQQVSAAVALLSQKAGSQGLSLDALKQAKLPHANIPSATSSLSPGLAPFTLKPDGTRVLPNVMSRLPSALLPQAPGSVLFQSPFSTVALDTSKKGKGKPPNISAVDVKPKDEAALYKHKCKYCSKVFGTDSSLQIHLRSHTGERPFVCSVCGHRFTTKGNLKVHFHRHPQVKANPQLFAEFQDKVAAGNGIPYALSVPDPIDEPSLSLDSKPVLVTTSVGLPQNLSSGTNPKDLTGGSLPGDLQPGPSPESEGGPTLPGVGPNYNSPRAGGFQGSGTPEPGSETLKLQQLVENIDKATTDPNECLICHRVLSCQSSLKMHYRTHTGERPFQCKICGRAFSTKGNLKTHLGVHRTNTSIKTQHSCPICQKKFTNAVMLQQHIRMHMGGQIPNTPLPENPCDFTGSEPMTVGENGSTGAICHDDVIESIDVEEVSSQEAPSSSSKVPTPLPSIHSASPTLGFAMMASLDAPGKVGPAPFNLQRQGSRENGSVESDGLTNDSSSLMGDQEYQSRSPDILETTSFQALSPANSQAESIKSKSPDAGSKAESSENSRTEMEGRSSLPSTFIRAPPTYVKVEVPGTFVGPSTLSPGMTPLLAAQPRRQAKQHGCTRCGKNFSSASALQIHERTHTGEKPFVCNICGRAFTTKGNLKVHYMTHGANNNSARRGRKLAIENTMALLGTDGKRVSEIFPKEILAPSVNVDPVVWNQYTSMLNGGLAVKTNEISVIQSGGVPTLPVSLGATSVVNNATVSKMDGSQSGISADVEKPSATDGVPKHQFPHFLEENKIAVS
Notes: 8-mer, flanks averaged, mean of replicates
Sequence | E-score
ACCATTGG | -0.156
CACAGGTA | -0.021
AGGGTATA | 0.249
GCTTAAGA | -0.02
GCAAGTGA | -0.00674
TCAGACGA | 0.0275
CAGACAAG | 0.00936
CCTTACCA | 0.126
CGTGGCAA | -0.0468
AAAATGCG | 0.0875
CACTTTGG | -0.0367
CCTCTGAC | -0.163
CGGGGGAC | -0.342
ACCTACGA | 0.0721
CCTAGGCA | -0.149
AGTCCAGC | -0.264
AGTCCATC | -0.0282
CGTCGAGA | -0.021
CTATAGTA | 0.202
GGGCCACA | -0.191
ATCAGATC | -0.0136
AGATCAGG | -0.168

Series 5 — technique: protein binding microarray; molecule type: double-stranded DNA, one strand shown; sample: in vitro; tested at: not given; relative to: not given; reading: higher = stronger binding
Target: Histone acetyltransferase KAT6A, both winged helices, GST fusion (KAT6A, Homo sapiens, UniProt Q92794, residues 1-181)
Notes: 8-mer, flanks averaged, mean of 2 arrays, mostly near background
Residues (chain): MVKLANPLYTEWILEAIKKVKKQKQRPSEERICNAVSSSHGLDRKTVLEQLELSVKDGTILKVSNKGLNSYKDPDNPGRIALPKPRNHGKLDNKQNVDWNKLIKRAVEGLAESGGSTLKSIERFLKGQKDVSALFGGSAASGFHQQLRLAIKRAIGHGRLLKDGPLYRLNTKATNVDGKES
Sequence | E-score
AACGAATG | -0.0977
ATCCGCAA | 0.0631
CCTGGAGA | -0.247
AAGGTCAC | -0.0443
AGATTCAT | -0.131
ACAAACCA | -0.333
ACGCACTG | 0.113
CAAGTATC | -0.182
ATCGCCCA | -0.181
CGGGTCAG | 0.272
ACGCCCTC | 0.173
GGCTGTAC | -0.00805
CCGGCCCC | 0.102
GCCTCTCC | -0.206
ATTCGACA | -0.124
CGCAATCC | 0.197
CTTATGAA | -0.0133
GGAGTATA | 0.0524
CATTCCGG | 0.113
ATCGTATA | -0.0579
ATGGATCA | -0.0562
CTTTTACC | -0.112
AGCAGTAC | -0.111
GATATTCA | -0.0653
CAGATCGG | 0.106

Some of these lines once more (series 4):
Sequence | E-score
TCAGACGA | 0.0275
CCTAGGCA | -0.149
GGGCCACA | -0.191
CAGACAAG | 0.00936
GCAAGTGA | -0.00674
GCTTAAGA | -0.02
AAAATGCG | 0.0875
CACAGGTA | -0.021
CTATAGTA | 0.202
AGGGTATA | 0.249
AGTCCAGC | -0.264
AGATCAGG | -0.168
CCTCTGAC | -0.163
CGTGGCAA | -0.0468
